Published values collected from several papers.
Lines come from different studies, so protocols differ.

SMILES | assay | test system | setting | how to read | measurement | result
C[C@@H](NC(=O)N1C(=O)[C@H](Cc2ccnc(N)c2)[C@H]1C(=O)O)C1CCCCC1 | – | human, plasma | continuous intravenous infusion, 0.6 mg/kg/h, days 1 to 6 of 5-day infusion, median | baseline: baseline | time to maximum PT over baseline | 84.3 h
CC(C)NCC(O)c1ccc(O)c(O)c1 (centres unmarked) | – | ventricular cardiomyocytes, C57BL/6 mouse | dose not given, 0.732 s | – | sarcomere length | 1.72 µm
N#Cc1ccn2c(-c3ccncc3)c(-c3ccc(F)cc3)nc2c1 | kinase binding, competitor, MIB/MS competition, refers to: CTK1 | Candida albicans cell lysate | 100 nM | baseline: DMSO | log2 fold change | 0.048
O=C(O)CNC(=O)Cc1ccccc1 | – | ventricular cardiomyocytes, C57BL/6 mouse | dose not given, 0.704 s | – | sarcomere length | 1.72 µm
NC(=O)c1cnc2[nH]ccc2c1N[C@@H]1[C@@H]2CC3C[C@H]1C[C@@](O)(C3)C2 | CD4+ effector memory T cells, flow cytometry | Japanese humans, peripheral blood | 60 mg single dose | baseline: baseline | percent change | 0.2%
C[C@H](Oc1ccc(Br)cc1-c1ccon1)C(=O)O | last response peak | human, tibialis anterior muscle | 50 mg, 30 Hz, single ascending dose | – | difference from placebo | -4.22%
Cc1n[nH]c2ccc(-c3cc(OC[C@@H](N)Cc4ccccc4)cnc3-c3ccoc3)cc12 | kinase binding, competitor, MIB/MS competition, refers to: TPK2 | Candida albicans cell lysate | 100 nM | baseline: DMSO | log2 fold change | -0.0872
OC(CCN1CCCCC1)(c1ccccc1)C1CC2C=CC1C2 (centres unmarked) | resting-state EEG | healthy elderly humans | oral, 2 mg, eyes open, LS mean | – | EEG Alpha1-power Fz-Cz | 2.6 µV²

For quick reference, copied from above:
SMILES | assay | test system | setting | how to read | measurement | result
N#Cc1ccn2c(-c3ccncc3)c(-c3ccc(F)cc3)nc2c1 | kinase binding, competitor, MIB/MS competition, refers to: CTK1 | Candida albicans cell lysate | 100 nM | baseline: DMSO | log2 fold change | 0.048
